Published values from different studies.
± marks the error that the study gave.
Organism: HIV-1

Compound	test	system	conditions	how to read	EC50
O=C(O)[C@H](Cc1ccc2ccccc2c1)NC(=O)C1(c2ccc3ccccc3c2)CCN(S(=O)(=O)c2ccc([N+](=O)[O-])cc2)CC1	viral replication	pNL4-3 wild type			17 µM
CC(=O)OCC1OC(n2cnc3c(Cl)nc(Cl)nc32)C2CC=CCC12 (mixture of isomers)	viral replication	human PBM cells, LAI			24.6 µM
Cc1cc(C)cc(S(=O)(=O)c2c(C(=O)NC3CC4(C3)CN(Cc3n[nH]c(=O)[nH]3)C4)[nH]c3ccc(Cl)cc23)c1	viral replication	MT-4, IIIB			0.0053 ± 0.0014 µM
COc1ccc(-n2c(SCc3cccnc3)nnc2[C@H](Cc2ccccc2)NC(=O)Cc2c(C)[nH]c3ccccc23)cc1	HIV-1-induced cytopathicity, MTT	MT-4, wild type		50% protection	2.61 ± 0.39 µM
CC(=O)OCC1OC(n2cc(C=CBr)c(=O)[nH]c2=O)C2CC=CCC12 (mixture of isomers)	viral replication	human PBM cells, LAI			> 100 µM
COc1cccc2c(Oc3c(C(F)(F)F)ccn(Cc4n[nH]c(=O)n4C)c3=O)cc(C)nc12	viral cytopathicity	MT4, wild type			> 244 µM
CC(=O)NCCN(CC(=O)NCCN(CC(=O)NCCN(CC(=O)NCCC(N)=O)C(=O)C[C@@H](N)Cc1ccccc1)C(=O)C[C@@H](N)CCCNC(=N)N)C(=O)C[C@@H](N)CCCNC(=N)N	viral replication, item: reverse transcriptase activity	PBMC, LAI			95 µM
COc1cc2nc(NC3CCN(Cc4ccc(C(N)=O)cc4)CC3)nc(Oc3c(C)cc(C#N)cc3C)c2cc1OC	viral replication, MTT	MT-4, IIIB			0.0045 µM
COc1ccc(-n2c(SCCN3CCOCC3)nnc2[C@H](Cc2ccccc2)NC(=O)Cc2c(C)[nH]c3ccccc23)cc1	HIV-1-induced cytopathicity, MTT	MT-4, wild type		50% protection	0.79 ± 0.29 µM
CC(=O)NCCN(CC(=O)NCCN(CC(=O)NCCN(CC(=O)NCCC(N)=O)C(=O)C[C@@H](N)Cc1ccccc1)C(=O)C[C@@H](N)Cc1ccccc1)C(=O)C[C@@H](N)CCCNC(=N)N	viral replication, item: reverse transcriptase activity	PBMC, LAI			85 µM
COc1cc(F)c(C(=O)c2ccnc(Nc3ccc(C#N)cc3)n2)c(F)c1	cytoprotection	MT4, IIIB wild type	5 days		0.005 µM
Cc1cc(/C=C/C#N)cc(C)c1Oc1nc(NC2CCN(Cc3ccc(S(C)(=O)=O)cc3)CC2)nc2ncccc12	viral replication, luciferase reporter	TZM-bl, NL4-3 wild type			0.00116 ± 0.00044 µM
CC(=O)NCCN(CC(=O)NCCN(CC(=O)NCCN(CC(=O)NCCC(N)=O)C(=O)C[C@@H](N)CCCNC(=N)N)C(=O)C[C@@H](N)CCCCN)C(=O)C[C@@H](N)Cc1ccccc1	viral replication, item: reverse transcriptase activity	PBMC, LAI			219 µM
Cc1cc(C#N)cc(C)c1Oc1nc(NC2CCN(Cc3ccccc3C#N)CC2)nc2ccccc12	viral replication, luciferase reporter	TZM-bl, NL4-3 wild type			0.0278 ± 0.00645 µM
Nc1nc(Cl)nc2c1ncn2C1OC(CO)C2CC=CCC21 (mixture of isomers)	viral replication	human PBM cells, LAI			76.2 µM
Cc1cc(C#N)cc(C)c1Oc1nc(NC2CCN(Cc3ccc(C(N)=O)cc3)CC2)nc2cccnc12	viral replication, luciferase reporter	TZM-bl, NL4-3 wild type			0.00189 ± 0.00053 µM
CC(=O)OCC1OC(n2cc(C)c(=O)[nH]c2=O)C2CC=CCC12 (mixture of isomers)	viral replication	human PBM cells, LAI			82 µM
Cc1cc(C#N)cc(C)c1Oc1nc(NC2CCN(Cc3cccc(F)c3)CC2)nc2ccccc12	viral replication, luciferase reporter	TZM-bl, NL4-3 wild type			0.0253 ± 0.00797 µM
C=CCSc1nnc([C@H](Cc2ccccc2)NC(=O)Cc2c(C)[nH]c3ccccc23)n1-c1ccc(OC)cc1	HIV-1-induced cytopathicity, MTT	MT-4, wild type		50% protection	2.05 ± 0.47 µM
Cc1cc(C#N)cc(C)c1Oc1nc(NC2CCN(Cc3ccc(C(N)=O)cc3)CC2)nc2ncccc12	viral replication, luciferase reporter	TZM-bl, NL4-3 wild type			0.00108 ± 0.00041 µM
Cc1ccc2c(N)c(C(=O)Nc3cccc(C(F)(F)F)c3)sc2n1	HIV-induced cytopathicity, XTT	CEM-SS, RF	6 days		28 µM
Cc1cc(C#N)cc(C)c1Oc1nc(NC2CCN(Cc3ccc([N+](=O)[O-])cc3)CC2)nc2ccccc12	viral replication, luciferase reporter	TZM-bl, NL4-3 wild type			0.0148 ± 0.00446 µM
COc1ccc(-n2c(SCc3ccncc3)nnc2[C@H](Cc2ccccc2)NC(=O)Cc2c(C)[nH]c3ccccc23)cc1	HIV-1-induced cytopathicity, MTT	MT-4, wild type		50% protection	2.89 ± 0.34 µM

A few entries again:
Compound	test	system	conditions	how to read	EC50
CC(=O)OCC1OC(n2cnc3c(Cl)nc(Cl)nc32)C2CC=CCC12 (mixture of isomers)	viral replication	human PBM cells, LAI			24.6 µM
Cc1cc(C)cc(S(=O)(=O)c2c(C(=O)NC3CC4(C3)CN(Cc3n[nH]c(=O)[nH]3)C4)[nH]c3ccc(Cl)cc23)c1	viral replication	MT-4, IIIB			0.0053 ± 0.0014 µM
